Experimental data gathered from unrelated publications.
Lines come from different studies, so protocols differ. ± gives the spread as reported. The star is where a group is joined.
CNR1: Cannabinoid receptor 1 (CNR1, Homo sapiens, UniProt P21554)
Chain of UniProt P21554 (whole entry, looked up): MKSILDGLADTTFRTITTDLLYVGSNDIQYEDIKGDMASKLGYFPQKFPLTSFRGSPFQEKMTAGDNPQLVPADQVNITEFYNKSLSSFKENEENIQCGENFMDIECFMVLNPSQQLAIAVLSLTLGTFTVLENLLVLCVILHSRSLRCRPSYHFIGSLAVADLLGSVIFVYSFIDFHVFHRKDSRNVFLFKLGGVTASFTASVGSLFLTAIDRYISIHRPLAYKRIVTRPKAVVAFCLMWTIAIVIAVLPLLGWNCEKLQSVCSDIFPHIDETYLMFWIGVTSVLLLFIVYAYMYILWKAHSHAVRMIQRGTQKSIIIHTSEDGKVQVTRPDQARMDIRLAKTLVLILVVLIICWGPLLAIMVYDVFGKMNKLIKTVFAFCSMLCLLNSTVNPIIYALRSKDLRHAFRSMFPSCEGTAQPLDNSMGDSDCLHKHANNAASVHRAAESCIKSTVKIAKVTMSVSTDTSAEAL
OPRD1: Delta-type opioid receptor (OPRD1, Homo sapiens, UniProt P41143)
Chain of UniProt P41143 (whole entry, looked up): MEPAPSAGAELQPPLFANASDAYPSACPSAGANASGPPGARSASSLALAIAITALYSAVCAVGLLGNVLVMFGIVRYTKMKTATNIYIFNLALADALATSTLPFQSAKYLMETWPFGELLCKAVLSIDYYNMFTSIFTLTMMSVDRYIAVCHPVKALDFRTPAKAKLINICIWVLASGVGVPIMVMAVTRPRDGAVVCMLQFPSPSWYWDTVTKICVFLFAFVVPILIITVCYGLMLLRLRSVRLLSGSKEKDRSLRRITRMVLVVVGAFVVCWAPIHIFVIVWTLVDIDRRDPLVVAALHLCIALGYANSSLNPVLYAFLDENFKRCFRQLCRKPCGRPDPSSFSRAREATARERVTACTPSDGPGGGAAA
Ryanodine receptor 1: Ryanodine receptor 1 (Oncorhynchus mykiss, UniProt A0A8C7UX14)
gdpP residues 84-659: gdpP, residues 84-659 (Bacillus subtilis, UniProt P37484)
Chain of UniProt P37484 (84-659, looked up): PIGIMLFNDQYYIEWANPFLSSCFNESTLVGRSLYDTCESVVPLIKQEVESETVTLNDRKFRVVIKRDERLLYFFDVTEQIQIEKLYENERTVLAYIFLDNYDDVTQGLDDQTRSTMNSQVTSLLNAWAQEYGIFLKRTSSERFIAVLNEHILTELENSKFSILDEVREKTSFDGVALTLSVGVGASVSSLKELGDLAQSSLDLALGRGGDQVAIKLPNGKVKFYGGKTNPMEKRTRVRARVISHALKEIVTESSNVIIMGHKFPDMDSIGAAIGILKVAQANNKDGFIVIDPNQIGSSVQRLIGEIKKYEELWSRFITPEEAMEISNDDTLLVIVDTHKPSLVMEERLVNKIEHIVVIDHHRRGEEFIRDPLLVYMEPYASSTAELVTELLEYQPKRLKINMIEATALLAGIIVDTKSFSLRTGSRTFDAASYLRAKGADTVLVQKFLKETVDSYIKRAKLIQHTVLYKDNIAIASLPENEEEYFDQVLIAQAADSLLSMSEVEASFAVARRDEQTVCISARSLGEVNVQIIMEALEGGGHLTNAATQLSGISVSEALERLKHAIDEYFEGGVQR
KCNMA1 with beta-3 subunit: Calcium-activated potassium channel subunit alpha-1, with beta-3 subunit (KCNMA1, Homo sapiens, UniProt Q12791)
Chain of UniProt Q12791 (whole entry, looked up): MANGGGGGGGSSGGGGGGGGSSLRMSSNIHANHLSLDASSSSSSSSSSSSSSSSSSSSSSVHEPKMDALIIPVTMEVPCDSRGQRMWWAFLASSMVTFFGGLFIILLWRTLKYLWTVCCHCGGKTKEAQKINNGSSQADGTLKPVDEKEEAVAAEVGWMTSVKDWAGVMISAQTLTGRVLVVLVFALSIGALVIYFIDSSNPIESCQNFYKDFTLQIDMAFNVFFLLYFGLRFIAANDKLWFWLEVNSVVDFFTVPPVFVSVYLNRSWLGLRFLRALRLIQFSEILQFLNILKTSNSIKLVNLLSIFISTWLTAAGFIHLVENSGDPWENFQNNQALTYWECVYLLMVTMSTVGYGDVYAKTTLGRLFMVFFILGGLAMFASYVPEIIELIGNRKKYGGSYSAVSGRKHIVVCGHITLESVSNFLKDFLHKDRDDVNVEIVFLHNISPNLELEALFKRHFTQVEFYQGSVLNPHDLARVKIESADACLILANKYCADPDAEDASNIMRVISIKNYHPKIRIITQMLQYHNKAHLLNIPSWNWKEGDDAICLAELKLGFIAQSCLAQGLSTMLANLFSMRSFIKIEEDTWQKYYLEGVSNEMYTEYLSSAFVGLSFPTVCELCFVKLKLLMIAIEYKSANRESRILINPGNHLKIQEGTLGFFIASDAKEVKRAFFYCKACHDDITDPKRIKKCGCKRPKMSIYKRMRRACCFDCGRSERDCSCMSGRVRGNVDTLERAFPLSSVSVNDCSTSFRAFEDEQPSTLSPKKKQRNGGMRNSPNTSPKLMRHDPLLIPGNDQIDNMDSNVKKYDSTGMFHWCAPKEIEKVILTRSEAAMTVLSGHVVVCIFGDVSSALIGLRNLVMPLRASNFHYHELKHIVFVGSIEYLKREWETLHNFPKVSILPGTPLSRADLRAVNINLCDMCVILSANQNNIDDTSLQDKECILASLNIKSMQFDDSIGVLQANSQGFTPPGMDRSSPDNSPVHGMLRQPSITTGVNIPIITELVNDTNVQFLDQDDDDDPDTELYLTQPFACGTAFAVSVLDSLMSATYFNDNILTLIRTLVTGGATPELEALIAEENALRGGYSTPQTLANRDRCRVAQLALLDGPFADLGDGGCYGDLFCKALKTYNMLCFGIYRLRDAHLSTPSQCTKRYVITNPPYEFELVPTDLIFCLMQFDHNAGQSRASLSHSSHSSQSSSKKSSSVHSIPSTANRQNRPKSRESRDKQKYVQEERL
Chain of UniProt Q9H008 (whole entry, looked up): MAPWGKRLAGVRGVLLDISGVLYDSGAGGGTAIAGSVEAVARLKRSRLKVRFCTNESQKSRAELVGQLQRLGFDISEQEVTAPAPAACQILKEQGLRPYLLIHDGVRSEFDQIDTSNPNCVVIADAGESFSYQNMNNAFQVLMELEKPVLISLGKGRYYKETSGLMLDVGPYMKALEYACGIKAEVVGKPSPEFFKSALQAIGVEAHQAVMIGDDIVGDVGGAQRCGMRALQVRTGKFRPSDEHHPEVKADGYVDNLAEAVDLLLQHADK
Chain of UniProt P63138 (whole entry, unmodified, looked up): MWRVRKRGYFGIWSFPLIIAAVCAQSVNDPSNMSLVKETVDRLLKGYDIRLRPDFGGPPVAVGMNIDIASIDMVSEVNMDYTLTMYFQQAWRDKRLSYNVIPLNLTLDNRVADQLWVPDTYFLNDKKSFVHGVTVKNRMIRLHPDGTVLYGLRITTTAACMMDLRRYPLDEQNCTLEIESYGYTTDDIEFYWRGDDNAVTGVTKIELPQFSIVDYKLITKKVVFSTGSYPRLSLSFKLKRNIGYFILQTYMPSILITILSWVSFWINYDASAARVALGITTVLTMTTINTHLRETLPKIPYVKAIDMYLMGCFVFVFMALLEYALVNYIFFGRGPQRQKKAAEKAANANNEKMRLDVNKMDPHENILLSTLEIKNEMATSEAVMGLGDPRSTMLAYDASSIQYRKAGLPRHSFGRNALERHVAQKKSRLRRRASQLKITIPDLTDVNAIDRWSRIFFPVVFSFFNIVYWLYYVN
Chain of UniProt P18508 (whole entry, unmodified, looked up): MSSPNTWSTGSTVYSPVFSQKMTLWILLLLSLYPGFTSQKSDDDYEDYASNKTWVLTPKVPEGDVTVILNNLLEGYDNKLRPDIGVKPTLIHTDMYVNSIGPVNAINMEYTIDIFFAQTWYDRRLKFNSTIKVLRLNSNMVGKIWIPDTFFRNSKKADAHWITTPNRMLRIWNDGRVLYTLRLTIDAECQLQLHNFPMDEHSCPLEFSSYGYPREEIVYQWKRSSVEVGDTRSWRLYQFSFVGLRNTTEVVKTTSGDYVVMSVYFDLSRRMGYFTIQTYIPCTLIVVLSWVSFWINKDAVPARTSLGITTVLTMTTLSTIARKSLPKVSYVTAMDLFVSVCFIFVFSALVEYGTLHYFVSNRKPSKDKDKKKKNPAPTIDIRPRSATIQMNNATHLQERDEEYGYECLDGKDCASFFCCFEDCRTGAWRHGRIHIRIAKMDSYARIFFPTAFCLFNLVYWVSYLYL
Chain of UniProt P12369 (whole entry, unmodified, looked up): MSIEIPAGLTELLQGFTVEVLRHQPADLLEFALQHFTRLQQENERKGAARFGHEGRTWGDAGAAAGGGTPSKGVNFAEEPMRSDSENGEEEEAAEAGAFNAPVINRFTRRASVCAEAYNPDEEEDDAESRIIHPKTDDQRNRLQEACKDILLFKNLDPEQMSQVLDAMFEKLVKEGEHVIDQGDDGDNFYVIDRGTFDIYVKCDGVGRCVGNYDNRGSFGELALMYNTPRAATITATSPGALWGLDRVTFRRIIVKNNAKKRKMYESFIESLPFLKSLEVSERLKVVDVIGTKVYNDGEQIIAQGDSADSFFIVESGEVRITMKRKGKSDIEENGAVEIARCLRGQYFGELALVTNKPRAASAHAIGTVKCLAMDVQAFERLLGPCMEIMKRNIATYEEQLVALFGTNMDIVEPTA
Chain of UniProt P62813 (whole entry, unmodified, looked up): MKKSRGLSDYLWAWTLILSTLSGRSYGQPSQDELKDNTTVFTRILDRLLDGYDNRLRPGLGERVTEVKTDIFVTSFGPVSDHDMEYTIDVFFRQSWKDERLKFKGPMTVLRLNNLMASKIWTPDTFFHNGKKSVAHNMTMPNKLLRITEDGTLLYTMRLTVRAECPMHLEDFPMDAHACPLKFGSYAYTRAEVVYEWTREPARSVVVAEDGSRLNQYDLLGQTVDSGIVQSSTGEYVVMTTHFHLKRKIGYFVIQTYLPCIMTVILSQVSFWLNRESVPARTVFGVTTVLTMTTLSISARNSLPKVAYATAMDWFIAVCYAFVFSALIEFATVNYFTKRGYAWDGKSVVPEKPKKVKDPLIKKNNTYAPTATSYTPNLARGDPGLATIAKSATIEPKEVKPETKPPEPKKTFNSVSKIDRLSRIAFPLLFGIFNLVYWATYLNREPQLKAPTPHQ
Chain of UniProt A7XUK7 (whole entry, looked up): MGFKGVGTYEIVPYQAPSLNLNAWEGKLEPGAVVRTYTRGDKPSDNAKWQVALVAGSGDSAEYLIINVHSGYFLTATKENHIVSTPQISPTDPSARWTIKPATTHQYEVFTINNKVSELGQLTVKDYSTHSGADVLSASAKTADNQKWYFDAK

| Substance | target | test | test system | conditions | how to read | quantity | result |
| --- | --- | --- | --- | --- | --- | --- | --- |
| COc1cc2cc(c1Cl)N(C)C(=O)C[C@H](OC(=O)[C@H](C)N(C)C(=O)CCSC)[C@]1(C)O[C@H]1[C@H](C)[C@@H]1C[C@@](O)(NC(=O)O1)[C@H](OC)/C=C/C=C(\C)C2 | microtubules, MAP-rich (bovine) |  |  |  | relative to: microtubule sites over soluble tubulin | affinity ratio | 9 fold |
| berbamine | Heat shock protein HSP 90-alpha, C-terminal domain (HSP90AA1, Homo sapiens, UniProt P07900) | binding, zonal affinity chromatography |  | pH 7.4, 25 °C |  | retention time | 30 min |
| O=C(Cc1cccc(F)c1)NC1CCOC1=O (stereo not shown) | HTH-type quorum-sensing regulator RhlR (rhlR, Pseudomonas aeruginosa, UniProt P54292) | reporter gene, agonist | Escherichia coli reporter strain | 100 µM | relative to: BHL 900 µM | activation | 79% |
| CC(F)(F)CCCn1nc(C(=O)NC(C)(C)c2cccc(C(N)=O)c2)c2ccccc21 | CNR1 | calcium mobilization, agonist | CHO-K1 expressing Gαq16 |  | relative to: CP55,940 maximum | Emax | 47 ± 3% |
| CC(C)[C@@H](CN1CCN(c2cccc(O)c2)[C@@H](C)C1)NC(=O)c1ccc(Oc2cccc(O)c2)cc1 | OPRD1 | antagonist | CHO | added: DPDPE |  | Ke | 625 ± 120 nM |
| O=S(=O)(O)Oc1ccc(-c2ccc(Cl)cc2)cc1 | sulfatase, human liver microsomes | substrate |  | pH 7.4, 37 °C |  | Vmax | 16.8 ± 3.8 nmol/min/mg |
| nitric oxide | H-NOX ferrous, Nostoc sp. | stopped-flow |  | 24 °C |  | rate constant | ~2e+06 M⁻¹ s⁻¹ |
| Clc1ccc(Cl)c(-c2cc(Cl)ccc2Cl)c1 | Ryanodine receptor 1 | [3H]ryanodine binding | rainbow trout, skeletal muscle microsomes |  |  | EC20 | 1.4 µM |
| CO[C@@H]1[C@@H]2OP(=O)(O)OC[C@H]3O[C@@H](n4cnc5c(N)ncnc54)[C@H](OC)[C@@H]3OP(=O)(O)OC[C@H]2O[C@H]1n1cnc2c(N)ncnc21 | gdpP residues 84-659 | substrate, HPLC |  | 100 µM, 37 °C, upper limit if undegraded 24 h, added: enzyme 1 µM |  | degradation rate | ≤ 0.001 mol/min/mol enzyme |
| N=C(N)NCC(=O)NCC1(Nc2ccccc2)CCN(Cc2ccccc2)CC1 | Neuropeptide FF receptor 1 (NPFFR1, Homo sapiens, UniProt Q9GZQ6) | receptor activation, agonist |  |  |  | highest concentration inactive | ≤ 1 µM |
| CC(C)C[C@H](NC(=O)[C@H](CCCCN)NC(=O)[C@H](CCCCN)NC(=O)CNC(=O)[C@H](CCCNC(=N)N)NC(=O)[C@@H](N)CCCNC(=N)N)C(=O)N[C@@H](CC(C)C)C(=O)N[C@@H](CC(C)C)C(=O)N[C@@H](CC(C)C)C(=O)N[C@@H](CC(C)C)C(=O)N[C@@H](CCCCN)C(=O)N[C@@H](CCCCN)C(=O)N[C@@H](CCCCN)C(=O)NCC(=O)O | dnaK, ADP-bound (Escherichia coli, UniProt P0A6Y8) | native gel shift |  | 50 µM, ADP-bound DnaK |  | fraction client-bound | 1.04 ± 0.04 |
| O=[N+]([O-])c1ccc2c(c1)S(=O)(=O)C=C2 | Fibroblast growth factor 14/SCN8A, Nav1.6 C-terminal tail (Homo sapiens, UniProt Q92915+Q9UQD0) | FGF14-Nav1.6 complex formation, luciferase complementation | HEK293 stably expressing both | 30 µM | relative to: DMSO | luminescence | 6% |
| [2H]C([2H])([2H])C([2H])([2H])Oc1ccccc1S(=O)(=O)N1CC(c2nc(-c3ccc(F)cc3)no2)C1 | KCNMA1 with beta-3 subunit |  | HEK293 | 30 µM |  | activity | inactive |
| CC(C)[C@@H](CN1CCN(c2cccc(O)c2)[C@@H](C)C1)NC(=O)c1ccc(Oc2cccc(F)c2)cc1 | OPRD1 | antagonist | CHO | added: DPDPE |  | Ke | 173 ± 5 nM |
| O[C@H](CN1CC[C@H](CCOC(c2ccccc2)c2ccccc2)[C@@H](O)C1)c1ccc(F)cc1 | Sodium-dependent dopamine transporter (Slc6a3, Rattus norvegicus, UniProt P23977) | dopamine uptake, inhibitor | rat striatum | added: [3H]dopamine |  | Ki | 0.00297 µM |
| Cc1cn([C@H]2C[C@H](O)[C@@H](COP(=O)(O)OP(=O)(O)OP(=O)(O)O)O2)c(=O)[nH]c1=O | DNA polymerase IV, with DNA (dbh, Saccharolobus solfataricus, UniProt Q97W02) | nucleotide incorporation opposite dC, single-turnover extension of lesion bypass product |  | lesion bypass extension, added: 21/26-mer dG-C8-N-ABA primer-template |  | misincorporation frequency | 1.6% |
| CC(C)[C@H](NC(=O)[C@H](CCC(=O)O)NC(=O)[C@H](CC(=O)O)NC(=O)[C@H](C)NC(=O)[C@H](CC(=O)O)NC(=O)[C@H](CC(N)=O)NC(=O)[C@H](CC(=O)O)NC(=O)[C@H](CO)NC(=O)[C@H](CO)NC(=O)[C@@H](NC(=O)[C@H](CCC(N)=O)NC(=O)[C@H](Cc1ccccc1)NC(=O)[C@H](CC(=O)O)NC(=O)[C@H](CCC(=O)O)NC(=O)[C@H](C)NC(=O)[C@@H](NC(=O)[C@H](CO)NC(=O)[C@H](CCC(=O)O)NC(=O)[C@@H](N)CC(=O)O)C(C)C)C(C)C)C(=O)N[C@@H](C)C(=O)N[C@@H](CCC(=O)O)C(=O)N[C@@H](CCC(=O)O)C(=O)N[C@@H](Cc1ccccc1)C(=O)N[C@@H](CC(=O)O)C(=O)N[C@@H](CO)C(=O)O | HTB1/HTA1, H2B residues 30-130 (Saccharomyces cerevisiae, UniProt P02293+P04911) | binding, ITC |  |  | relative to: wild-type MBD peptide | affinity decrease | 39 fold |

| Substance | target | test | test system | conditions | how to read | quantity | result |
| --- | --- | --- | --- | --- | --- | --- | --- |
| DNRDGNVYYF | Serine endoprotease DegS (degS, Escherichia coli, UniProt P0AEE3, H198P/K243D) | substrate | peptide | 23 °C, added: saturating OMP peptide |  | Hill coefficient | 1.2 ± 0.1 |
| Ac-LDEVD-pNA (N-acetyl, C-pNA; pNA = O=[N+]([O-])c1ccc(N*)cc1) | Caspase-8 (CASP8, Homo sapiens, UniProt Q14790) | substrate hydrolysis, substrate, colorimetric |  | pH 7.5 |  | kcat | 0.15 ± 0.0167 s⁻¹ |
| Nc1ncnc2c1ncn2[C@@H]1O[C@H](CSCC[C@H](N)C(=O)O)[C@@H](O)[C@H]1O | bioB (Escherichia coli, UniProt P12996) | enzyme activity, inhibitor |  | 30 min, 37 °C, 25 µM enzyme monomer, added: 100 µM S-adenosylmethionine, 200 µM dethiobiotin |  | concentration for full inhibition | 10.6 µM |
| Clc1cc(Cl)c(-c2c(Cl)cc(Cl)c(Cl)c2Cl)cc1Cl | Ryanodine receptor 1 | [3H]ryanodine binding | rainbow trout, skeletal muscle microsomes |  |  | EC20 | 6.76 µM |
| Nc1ncnc2c1nc(Br)n2[C@@H]1O[C@@H]2COP(O)(=S)O[C@H]2[C@H]1O (stereo partly shown) | cAMP-dependent protein kinase type II-beta regulatory subunit, holoenzyme with catalytic subunit (Prkar2b, Rattus norvegicus, UniProt P12369, S112A) | PKA holoenzyme activation, activator, fluorescence anisotropy |  |  | relative to: RIIβ over RIα, higher = RIIβ-selective | selectivity ratio | 3.1 |
| C#CCOc1cccc(-c2cc(=O)c3ccccc3o2)c1 | Cytochrome P450 1A1 (CYP1A1, Homo sapiens, UniProt P04798) | enzyme inactivation, mechanism-based inactivator, EROD |  | added: NADPH preincubation |  | KI | 0.24 µM |
| O=[N+]([O-])c1ccc(O[C@H]2O[C@H](CO)[C@H](O)[C@H](O)[C@H]2O)cc1 | lacY (Escherichia coli, UniProt P02920, H35C/N245C) | cytoplasmic cavity opening | DDM | Cu2+ cross-linked |  | forward rate constant | 45 ± 4 s⁻¹ |
| CCCC(C)Sc1nc2c([nH]1)c(=S)n(C)c(=O)n2C (stereo not shown) | Androgen receptor (AR, Homo sapiens, UniProt P10275) | reporter gene, antagonist, PSA-luciferase | HeLa-A6 | 10 µM, 24 h, added: 5 nM dihydrotestosterone | relative to: maximal activity | remaining activity | 112% |
| Nc1ncnc2c1ncn2[C@@H]1O[C@@H]2CO[P@@](=O)(S)O[C@H]3[C@@H](O)[C@H](n4cnc5c(N)ncnc54)O[C@@H]3CO[P@@](=O)(S)O[C@H]2[C@H]1O | gdpP residues 84-659 | substrate, HPLC |  | 100 µM, 37 °C, upper limit if undegraded 24 h, added: enzyme 1 µM |  | degradation rate | ≤ 0.001 mol/min/mol enzyme |
| NC(=O)C1(NC(=O)c2nn(Cc3ccc(F)cc3)c3ccccc23)CCCC1 | CNR1 | calcium mobilization, agonist | CHO-K1 expressing Gαq16 |  | relative to: CP55,940 maximum | Emax | 89 ± 2% |
| N[C@@H](COP(=O)(O)O)C(=O)O | Phospholysine phosphohistidine inorganic pyrophosphate phosphatase (LHPP, Homo sapiens, UniProt Q9H008) | substrate, absorbance |  | 100 µM, 90 min, pH 7.8 |  | substrate hydrolysis | 5.75% |
| CC(=O)N[C@H]1[C@H](O[C@H]2[C@@H](O)[C@@H](CO)O[C@@H](O[C@H]3[C@H](O)[C@@H](O)[C@H](OCCN)O[C@@H]3CO)[C@@H]2O)O[C@H](CO)[C@@H](O[C@@H]2O[C@H](CO)[C@H](O[C@H]3O[C@H](CO)[C@H](O)[C@H](O[C@@H]4O[C@H](CO)[C@H](O)[C@H](O)[C@H]4NC(C)=O)[C@H]3O)[C@H](O)[C@H]2O)[C@@H]1O | Agglutinin (Sclerotinia sclerotiorum, UniProt A7XUK7) | glycan array |  | concentration not given, pH 7.4, room temperature |  | lectin binding | 19900 ± 810 RFU |
| CCOC(=O)c1ncn2c1CN(C)C(=O)c1cc(F)ccc1-2 | GABA-A receptor; alpha-1/beta-2/gamma-2 (Rattus norvegicus, UniProt P18508+P62813+P63138, R158C) | GABA-evoked current, antagonist, two-electrode voltage clamp | Xenopus oocytes | 1 µM, added: flurazepam 10 µM or DMCM 1 µM |  | modulation | decreased |
| CC[C@H](C)[C@H](NC(=O)[C@H](C)NC(=O)[C@H](CO)NC(=O)[C@@H](NC(=O)[C@H](CCC(=O)O)NC(=O)[C@H](CCC(=O)O)NC(=O)[C@H](CCC(N)=O)NC(=O)[C@H](CCCCN)NC(=O)[C@H](CCCNC(=N)N)NC(=O)[C@@H](N)CCCCN)C(C)C)C(=O)N[C@H](C(=O)N[C@H](C(=O)N[C@@H](CCC(N)=O)C(=O)N[C@@H](CCCNC(=N)N)C(=O)N[C@@H](C)C(=O)N[C@@H](Cc1ccc(O)cc1)C(=O)N[C@@H](CCCNC(=N)N)C(=O)N[C@@H](CCCNC(=N)N)C(=O)N[C@@H](Cc1ccc(O)cc1)C(=O)N[C@@H](CC(C)C)C(=O)N[C@@H](CC(C)C)C(=O)N[C@@H](CCCCN)C(=O)N[C@@H](CCC(N)=O)C(=O)N[C@@H](CCCCN)C(=O)N[C@H](C(=O)N[C@@H](CCCCN)C(=O)N[C@@H](CCCCN)C(=O)O)C(C)C)[C@@H](C)CC)C(C)C | Calmodulin, C-terminal domain (CAM, Paramecium tetraurelia, UniProt P07463) |  |  | 3 to 1 µM, pH 7.4, 22 °C, apo CaM residues 76-148 | relative to: peptide alone | fluorescence emission increase | 15% |
| Clc1ccc(-c2c(Cl)ccc(Cl)c2Cl)c(Cl)c1Cl | Ryanodine receptor 1 | [3H]ryanodine binding | rainbow trout, skeletal muscle microsomes | up to 20 µM | relative to: DMSO | Emax | 122 ± 9.49% |
| CC(C)C[C@H](N)C(=O)O | SPS-sensor component SSY1 (SSY1, Saccharomyces cerevisiae, UniProt Q03770) |  |  | cytoplasmic volume 2 ml/g DW |  | slope of EC50 vs cytoplasmic level | 0.003 |
| Cc1ccc2cccc(S(=O)(=O)N3CC(c4nc(-c5ccc(F)cc5)no4)C3)c2n1 | KCNMA1 with beta-3 subunit |  | HEK293 | 30 µM |  | activity | inactive |
